Experimental data pooled from the literature.
CA9: Carbonic anhydrase 9 (CA9, Homo sapiens, UniProt Q16790)
TGFBR2: TGF-beta receptor type-2 (TGFBR2, Homo sapiens, UniProt P37173)
UniProt P37173, sequence (whole entry, looked up): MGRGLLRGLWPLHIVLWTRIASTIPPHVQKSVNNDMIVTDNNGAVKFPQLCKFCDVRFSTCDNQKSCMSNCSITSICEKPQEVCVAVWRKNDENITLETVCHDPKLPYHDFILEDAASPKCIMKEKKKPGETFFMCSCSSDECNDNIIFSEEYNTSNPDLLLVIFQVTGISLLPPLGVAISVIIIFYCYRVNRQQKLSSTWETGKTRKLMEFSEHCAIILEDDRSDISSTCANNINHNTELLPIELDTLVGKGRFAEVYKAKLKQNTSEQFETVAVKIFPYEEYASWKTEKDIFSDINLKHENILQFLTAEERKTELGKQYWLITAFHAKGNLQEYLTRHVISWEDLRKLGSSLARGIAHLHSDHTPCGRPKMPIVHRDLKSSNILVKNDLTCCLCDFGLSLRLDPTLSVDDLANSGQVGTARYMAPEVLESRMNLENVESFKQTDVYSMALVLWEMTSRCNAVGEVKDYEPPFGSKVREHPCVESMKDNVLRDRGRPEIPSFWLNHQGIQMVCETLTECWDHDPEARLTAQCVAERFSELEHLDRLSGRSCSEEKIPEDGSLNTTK
FLT3 D835Y: Receptor-type tyrosine-protein kinase FLT3 (FLT3, Homo sapiens, UniProt P36888, D835Y)
UniProt Q13882, sequence (whole entry, looked up): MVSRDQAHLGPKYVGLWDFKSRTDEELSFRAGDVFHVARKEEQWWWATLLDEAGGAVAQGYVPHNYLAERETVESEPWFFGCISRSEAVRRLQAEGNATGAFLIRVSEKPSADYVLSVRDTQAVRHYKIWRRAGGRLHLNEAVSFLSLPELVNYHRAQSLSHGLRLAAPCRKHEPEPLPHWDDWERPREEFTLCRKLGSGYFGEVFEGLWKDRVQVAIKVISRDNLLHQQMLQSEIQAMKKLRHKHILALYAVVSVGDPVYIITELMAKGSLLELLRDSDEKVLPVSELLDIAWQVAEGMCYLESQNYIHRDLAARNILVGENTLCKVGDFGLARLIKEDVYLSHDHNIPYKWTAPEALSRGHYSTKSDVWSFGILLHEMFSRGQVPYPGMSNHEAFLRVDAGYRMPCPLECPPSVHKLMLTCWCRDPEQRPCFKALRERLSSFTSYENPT

| Compound | target | read-out | mode | technique | tested at | measurement | result |
| --- | --- | --- | --- | --- | --- | --- | --- |
| Cc1nn(-c2ccc(S(N)(=O)=O)cc2)c(C)c1CCC(=O)Nc1ccccc1C(=O)NCc1cn(C)nn1 | CA9 | enzyme activity | inhibitor |  |  | IC50 | 38.9 nM |
| COc1cc(-c2cncc3c2CN(C)Cc2cc(N4CCNCC4)ccc2-3)cc(OC)c1OC | PTK6 (Homo sapiens, UniProt Q13882) | enzyme activity | inhibitor |  | 1 µM | remaining activity | 31% |
| [2H]c1c([2H])c([C@]2([2H])CCCN2C(=O)C(C)(C)Oc2ccc3cn[nH]c3c2)c([2H])c([2H])c1C([2H])([2H])[2H] | TGFBR2 | binding |  | competition with immobilised ligand | 1 µM | remaining binding | 84% |
| CCCCC(=O)Nc1ccc(-c2ccc3ncn(CCC)c(=O)c3c2)cn1 | TGFBR2 | binding |  | competition with immobilised ligand | 0.5 µM | remaining binding | 100% |
| Cn1cc(-c2ccc(NC(=O)Nc3nc(CC(=O)Nc4ccc(S(N)(=O)=O)cc4)cs3)cc2)nn1 | CA9 | enzyme activity | inhibitor |  |  | IC50 | 29.5 nM |
| C1=C/COCc2cc(ccc2OCCN2CCCC2)Nc2nccc(n2)-c2cccc(c2)COC/1 | FLT3 D835Y | binding |  |  | 0.1 µM | remaining binding | 8.2% |
| Cc1cc([C@@H](C)Nc2ccccc2C(=O)O)c2nc(N3CCC(F)(F)CC3)c(C#N)c(=O)n2c1 | ERBB2 (Homo sapiens, UniProt P04626) | binding |  | competition with immobilised ligand | 10 µM | remaining binding | 100% |
| C=CC(=O)N1CCC(COCC(=O)N2CCN(c3nc(-c4cnc(N)nc4C(F)F)nc(N4CCOC[C@@H]4C)n3)CC2)CC1 | FLT3 D835Y | binding |  | competition with immobilised ligand | 1 µM | remaining binding | 87% |

A few entries again:
| Compound | target | read-out | mode | technique | tested at | measurement | result |
| --- | --- | --- | --- | --- | --- | --- | --- |
| Cc1cc([C@@H](C)Nc2ccccc2C(=O)O)c2nc(N3CCC(F)(F)CC3)c(C#N)c(=O)n2c1 | ERBB2 (Homo sapiens, UniProt P04626) | binding |  | competition with immobilised ligand | 10 µM | remaining binding | 100% |
